Experimental data gathered from unrelated publications.
Each line is one published result; not all experiments were run side by side. ± marks the error that the study gave.

Cc1c(-c2ccc(N3CCc4cccc(C(=O)Nc5nc6ccccc6s5)c4C3)nc2C(=O)O)cnn1CC12CC3(C)CC(C)(C1)CC(OCCNCC[C@H](O)CO)(C3)C2
systemic vascular resistance change (anaesthetised male beagle dogs; intravenous infusion, 0.3 mg/kg/min, 30 min; baseline: vehicle): 2%

CCc1cc(C(=O)NC)c2nccc(N3CCc4c(cc(Cn5ccnc5)cc4-c4cn(C)nc4C(F)(F)F)C3=O)c2c1
reticulocyte count change (Sprague Dawley rats; oral, 100 mg/kg twice daily, 7 days; baseline: vehicle): -40.9%

CNC(=O)c1ccc(-c2cnc3ncc(Cc4ccc5ncccc5c4)n3n2)cc1F
patients with adverse event (refers to: Asthenia, all grades; cancer patients; oral, 600 mg twice daily, other expansion cohort, any causality): 11%

COc1ccc2c(=O)n(C)c(-c3ccccc3)nc2c1
tissue concentration (male Sprague-Dawley rat, small intestine; oral, 30 mg/kg, 2 h): 50900 ng/g

CCC(=O)N(CCC(c1ccc2c(c1)OCO2)c1ccccc1OC)Cc1ccccc1 (stereo not shown)
GLOB (female athymic nude mouse, blood; i.p., 60 mg/kg twice daily, 14 days, group mean): 1.73 g/dL

c1ccc2c(c1)ccc1c3ccccc3ccc21
literature range of log K (polyethylene-water partitioning; PAH compilation): 5.37 to 5.91 log units

CN1CC(=O)N2[C@H](c3ccc4c(c3)OCO4)c3[nH]c4ccccc4c3C[C@@H]2C1=O
accuracy (human plasma; 1.50 ng/mL, freeze-thaw at -70 °C): 97.8%

CN[C@@H]1COc2c(S(=O)(=O)NC(=O)Nc3c4c(cc5c3CCC5)CCC4)cnn2C1
renal clearance (human, high-fat meal, urine; oral, 600 mg, 48 h): 8.32 mL/min

CNCCOC12CC3(C)CC(C)(CC(Cn4ncc(-c5ccc(N6CCc7cccc(C(=O)Nc8nc9ccccc9s8)c7C6)nc5C(=O)O)c4C)(C3)C1)C2
systemic vascular resistance change (anaesthetised male beagle dogs; intravenous bolus, 0.03 mg/kg, 75 min; baseline: baseline): 26%

O=C1c2ccncc2C(=O)c2c1[nH]c1ccccc21
volume of distribution (Sprague-Dawley rat female, plasma; intravenous, 5 mg/kg): 14.3 ± 8.4 L

COc1cccc(OC)c1-c1cc(C(=O)NC2(C(=O)O)C3CC4CC(C3)CC2C4)nn1-c1ccc(C(=O)N(C)CCCN(C)CCCN(C)C(=O)CN2CCN(CC(=O)[O-])CCN(CC(=O)[O-])CCN(CC(=O)[O-])CC2)cc1C(C)C.[177Lu+3] (stereo not shown)
tumour-to-pancreas ratio (mouse HT-29 xenograft; 24 h, biodistribution; baseline: tumour over pancreas): 142

N[C@@H](CC(=O)N1CCn2c(nnc2C(F)(F)F)C1)Cc1cc(F)c(F)cc1F
AUC(0-2) divided by body mass index (human, male, plasma; oral, 100 mg single dose): 20.1 ± 9.35 ng·h/mL

CO[C@H]1C[C@@H]2CC[C@@H](C)[C@@](O)(O2)C(=O)C(=O)N2CCCC[C@H]2C(=O)O[C@H]([C@H](C)C[C@@H]2CC[C@@H](OC(=O)NCCOCCOCCOCCOCCOCCOCCOCCOCCC(=O)N3CCc4cc(Cn5nc(-c6ccc7oc(N)nc7c6)c6c(N)ncnc65)ccc4C3)[C@H](OC)C2)C[C@@H](O)[C@H](C)/C=C(\C)[C@@H](O)[C@@H](OC)C(=O)[C@H](C)C[C@H](C)/C=C/C=C/C=C/1C
Tmax (human, plasma; intravenous, 8 mg, cycle 1 day 1, arithmetic mean): 0.8 h

CC(C)[C@H](C(=O)Nc1ccc(C(=O)NO)cc1)c1ccccc1
accuracy (whole blood; 100 ng/mL, 5 h, 4 °C, stability on ice): 112%

COCc1cc(C(=O)Nc2cc([C@H]3CC[C@@H](OC(=O)NC(C)C)C3)[nH]n2)n(C)n1
AUC(0-24h) (OVCAR-3 xenograft, NOD/SCID gamma mice, plasma; oral, 75 twice daily, tumour growth inhibition study): 10.6 µM·h

CNC(=O)c1ccc(-c2cnc3ncc(Cc4ccc5ncccc5c4)n3n2)cc1F
Pneumonitis patients (Japanese patients; oral, 400 mg twice daily, any grade): 2%

FC(F)(F)c1ccc(CNc2ccc(Cc3c[nH]c4ncc(Cl)cc34)cn2)cn1
adverse event incidence (refers to: Dysgeusia; patients with advanced solid tumours; oral, dose not given, all grades, possibly related to drug): 26%

NC1(C(=O)N[C@@H](CCO)c2ccc(Cl)cc2)CCN(c2nc[nH]c3nccc2-3)CC1
incidence of Leukopenia (metastatic CRPC patients; dose not given, grade 3 to 4, treatment-related, all doses, with: enzalutamide 160 mg daily): 0%

CN(CC#N)C(=O)C[C@H](Nc1nc2ccccc2[nH]1)c1cccc(C(F)(F)F)c1
apparent clearance (human; intravenous infusion, 3 mg/kg, 1 mg/mL formulation): 10.4 ± 2.86 L/h

CN(C(=O)n1cnc(-c2cccnc2)c1)[C@H]1CC[C@H](O)CC1
tissue concentration (rat, cerebellum; oral, 10 mg/kg single dose, 4 h): 33 ± 8 ng/g

CNC(=O)c1cc(Oc2ccc(NC(=O)Nc3ccc(Cl)c(C(F)(F)F)c3)c(F)c2)cc[n+]1[O-]
accuracy (long-term stability; mouse plasma; 25 ng/mL, 6 months, -80 °C): 98.6%

N#Cc1ccc2c(c1)[C@H]1CCCN(C(=O)c3ccc4[nH]cnc4c3)[C@H]1C2
SHBG level (human females; 160 mg, day 7): 27.9 nmol/L

COc1cc([C@H]2OC[C@H]3[C@@H]2CO[C@@H]3c2ccc(O[C@@H]3O[C@H](CO)[C@@H](O)[C@H](O)[C@H]3O)c(OC)c2)ccc1O[C@@H]1O[C@H](CO)[C@@H](O)[C@H](O)[C@H]1O
accuracy (post-procedure stability; rat plasma; 200 ng/mL, 1 h, room temperature): 102%

Cc1nc2cccc(OCC(C)(C)C(=O)NC(C)C)c2c(N)c1C(=O)O
PCE/NCE ratio (male Swiss albino CD-1 mouse, bone marrow; oral, 2000 mg/kg, 24 h): 0.83

C=CC(=O)Nc1cc(Nc2nccc(-c3cn(C)c4ccccc34)n2)c(OC)cc1N(C)CCN(C)C
AUC at steady state (human patients, plasma; dose not given, Q4 exposure quartile, with chemotherapy): 15.5 to 109 µM·h

CC[C@H](C)[C@H](NC(=O)CN)C(=O)N[C@@H](C)C(=O)N[C@@H](CCCCN)C(=O)N[C@@H](C)C(=O)N[C@H](C(=O)N[C@@H](CCCCN)C(=O)N[C@@H](CCCCN)C(=O)N[C@H](C(=O)N[C@@H](C)C(=O)N[C@@H](CCCCN)C(=O)N[C@@H](C)C(=O)N[C@@H](CC(C)C)C(=O)NCC(N)=O)[C@@H](C)CC)[C@@H](C)CC
helix content (circular dichroism; 10 mM SDS; 100 µM): 18%

CCCCCN1C[C@H](O)[C@@H](O)[C@H](O)[C@@H]1CO
plasma concentration (LC-MS/MS; mouse Hexb-/- male, plasma; 300 mg/kg/day, arithmetic mean): 3000 ng/mL

C=CC(=O)Nc1cc(Nc2ncc(C(=O)OC(C)C)c(-c3cn(C)c4ccccc34)n2)c(OC)cc1N(C)CCN(C)C
amount excreted in urine (healthy human, urine; oral, 120 mg single dose, 0-48 h, arithmetic mean): 0.83 mg

COc1nc(-c2cc(C)c(N[C@@H](C)c3cc(F)cc(F)c3)nn2)ccc1-n1cnc(C)c1
Tmax (cynomolgus monkey, male, plasma; oral, 2 mg/kg): 4 h

O=C(N[C@H](Cc1c[nH]c2ccccc12)C(=O)Nc1ccncc1)c1ccc(-c2cc(C(F)(F)F)ccc2F)cc1F
concentration (Swiss Webster mouse, female, lung; oral, 50 mg/kg, 2 h, 20% Kolliphor vehicle): 54.2 µM

COc1cccc(-c2n[nH]c(SCc3ccccn3)n2)c1OC
plasma concentration (Sprague-Dawley rats, both sexes; oral dietary, 10 mg/kg/day, day 7, 1 h): 143 ng/mL

COc1ncc(-c2nc3c(n2C(C)C)[C@H](c2ccc(Cl)cc2)N(c2cc(Cl)cn(C)c2=O)C3=O)c(OC)n1
Cmax (LC-MS/MS; human, plasma; oral, 1 mg, cycle 1 day 14, low-dose arm): 14.9 ng/mL

COc1ccc2[nH]c([S@+]([O-])Cc3ncc(C)c(OC)c3C)nc2c1
AUC fold change (human male, dried plasma spots; dose not given, mean, with: fluvoxamine and voriconazole; baseline: inhibition over control): 8.9 fold

Cc1cc(-c2nccc3c2ccn3CC(=O)Nc2ccc(-c3cnccn3)cn2)ccn1
subjects with TEAE leading to discontinuation (human; MAD part, 15 mg once daily): 11.1%

CC(C)(C(=O)N1CCOc2c(C#N)cncc2C1)C(F)F
subjects with adverse event (refers to: Psychiatric disorders; human; oral, 20 mg once daily, 14 days, multiple ascending dose): 0%

C=CC(=O)NC1CCN(c2ncc3ncnc(Nc4ccc(Oc5ccc6c(c5)ncn6C)c(C)c4)c3n2)CC1
adverse events incidence (refers to: nervous system disorders (SOC); human male; oral, dose not given, CTCAE on-treatment AEs): 0%

Cc1cc(NC2CCN(C(=O)OC3CCN(C(=O)/C=C/CN(C)C)C3)CC2)n2ncc(C(C)C)c2n1 (stereo not shown)
patients with TEAE (CTCAE v4.0, refers to: Dyspnea; patients with advanced solid tumours; oral, dose not given, TIW, grade 3 or higher): 0%

O=C(Cc1ccc2ccccc2c1)Nc1cc(C2CCC2)[nH]n1
accuracy (mouse plasma; 375 ng/mL, 40 days, -80 °C, long-term storage stability): 99.6%

CCn1cc(C(=O)N2CCOCC2)c(=O)c2cc(NC3Cc4ccccc4C3)cnc21
Tmax (human overall, fed, plasma; oral, 900 mg twice daily, day 1, tablet, median): 2.25 h

COc1cc2c3c(n(CCCN4CCOCC4)c(=O)c2cc1OC)-c1cc2c(cc1C3=O)OCO2
volume of distribution (Fischer 344 rats, female; intravenous bolus, 24 mg/m^2): 194 L/m²

C[C@H]1Oc2cc(cnc2N)-c2c(nn(C)c2C#N)CN(C)C(=O)c2ccc(F)cc21
free plasma concentration (Balb/c nude mouse, female, plasma; 5 mg/kg, single dose, 1 h): 850 nM

O=C(O)CCC(=O)O.[2H]C([2H])([2H])Oc1cc(C)c2[nH]ccc2c1CN1CC[C@@H](C2CC2)C[C@H]1c1ccc(C(=O)O)cc1
Vss/F (human, plasma; 50 mg twice daily, day 10, multiple ascending dose): 74.6 L

CC(C)c1nc(N(C)S(C)(=O)=O)nc(-c2ccc(F)cc2)c1/C=C/[C@@H](O)C[C@@H](O)CC(=O)O
central volume of distribution (population pharmacokinetic model; people living with HIV; oral, dose not given): 153 L

CCN(CC)CCOC(=O)c1ccc(N)cc1
remaining compound (LC-MS; BALB/c nude mouse, plasma; 2 µM, 0.75 h): 0.07%

C=C[C@@](C)(/C=C/c1ccc(O)cc1)CCC=C(C)C
accuracy (post-procedure stability; rat plasma; 200 ng/mL, 3 h, room temperature): 119%

Cc1ccc([C@@H]2O[C@H](CO)[C@@H](O)[C@H](O)[C@H]2O)cc1Cc1ccc(-c2ccc(F)cc2)s1
urinary phosphate excretion change (refers to: inorganic phosphorus; Japanese type 2 diabetes patients; 200 mg, day 16, 24 h urine collection; baseline: baseline): 38.2 mg

O=C(O)CCCOc1ccc([18F])cc1-c1cc(-c2ccccc2C(F)(F)F)n(-c2ccccc2)n1
radioactivity uptake (gamma counting; male ddY mice, brain; intravenous, 2.1 MBq, 30 min): 0.24 ± 0.01 SUV

CCN1CCN(Cc2ccc(Nc3ncc(F)c(-c4cc(F)c5nc(C)n(C(C)C)c5c4)n3)nc2)CC1
Vss/F (healthy human, fasted; oral, 150 mg, tablet): 1740 L

Cc1ccc(Sc2ccccc2N2CCNCC2)c(C)c1
adverse event incidence (TEAE vomiting; healthy adult men; oral, 10 mg single dose, 8 nights, fasted): 0%

CC(C)[C@@H](CS(=O)(=O)C(C)C)N1C(=O)[C@@](C)(CC(=O)O)C[C@H](c2cccc(Cl)c2)[C@H]1c1ccc(Cl)cc1
spinal cord distribution advantage (FVB mouse, Abcb1a/b knockout, spinal cord; intravenous, 20 mg/kg, unit not given; baseline: knockout Kp over wild-type Kp): 59.5

CNc1ccc(-c2nc3ccc(O)cc3s2)cc1 [carbon-11 labelled]
SUV (microPET/CT imaging; APP/PS1 mouse, AD model, brain; intravenous, 10 min): 0.436 ± 0.172

O=C(Nc1nc2cccc(-c3ccc(CN4CCS(=O)(=O)CC4)cc3)n2n1)C1CC1
treatment-emergent adverse events (refers to: vertigo; rheumatoid arthritis patients; oral, 30 mg once daily, 4 weeks, any relatedness): 0%

CCN1/C(=C/C(C)=O)Sc2ccc(F)cc21
PR interval (cynomolgus monkey; oral, 30 mg/kg, 6 h post-dose): 88 ± 3 ms

C=CC(=O)N1CCC(c2ccc(C(N)=O)c(-c3ccc(Oc4ccccc4)cc3)n2)CC1
incidence (serious adverse event Hypoalbuminemia; patients with relapsed/refractory MCL; oral): 0.9%

Cl.[2H]C([2H])([2H])CC(=O)c1cnc(NC(=O)C2CC2)cc1Nc1cccc(-c2ncn(C([2H])([2H])[2H])n2)c1OC
AUC(0-tau) (geometric mean; human; oral, 40 mg twice daily, day 14, fasted, tablet, multiple dose): 3250 ng·h/mL
